# Assay results pooled from the literature.
# Numbered parts are unrelated; each lists some results of a single study.

# Series 1
# Target: Interferon regulatory factor 5, full length, phosphomimetic (IRF5, Homo sapiens, UniProt Q13568-2, residues 1-514, K96S/S451D/S453D/S456D/S462D)
# Technique: protein-binding microarray
# Form: double-stranded DNA, one strand shown
# Medium: in vitro
# Concentration: 250 nM
# Notes: 60-bp whole probe
# Added: salmon DNA 0.4 mg/ml
# Reference: random background probes
# Reading: higher = stronger binding
# Constant ends, left off below: GCCTAGCAC … GTCTTGATTCGCTTGACGCTGCTG
Oligonucleotide,log fluorescence [z-score]
TTAGCACTGAGTATCGATTAGTGCTAG,5.85
TCAAATTGTCTTTTCACACTGTGCTAG,0.836
TTAGGACTGGGGTTTCGGTTTGTGCTA,6.19
CAAACACTAATTTTCAATTCGTGCTAG,1.03
TCAGGTCTCCCTTGAGGACTGTGCTAG,-0.363
TTAGGACTGGGGACTGGGTGAGTGCTA,-0.529
GACGGTTTCGGCACTGGGGACGTGCTA,4.9
TAGGGACTCGGGTCTCCCTTGGTGCTA,-1.01
TTAGATATCGGGACTGAATTAGTGCTA,1.23
CCTTATCCCTAATCTCAGCCTGTGCTA,-0.109
TTAGAACTGGGGTTTCGATTAGTGCTA,5.81
CTAGGACTGCTTATCCTTTAGTGCTAG,-0.597
TTGGATTTCAGTTTCGATTAGTGCTAG,10.2
TTAAGTTTCGACACTGGGTTAGTGCTA,7.82
CTCCTAATAAATATGAGACTGTGCTAG,-0.0434
CCGAAAATGCCCTTTTGGTGAGTGCTA,2.9
TTAGAACTGAGACTGGATTGGTGCTAG,-0.284
TTTGGTTTCTGGTTTATTGAGTGCTAG,3.97
CTTTATTTAAGCTCCTATCTTGTGCTA,0.593
TCAGGTTTACCAGATCATCTGGTGCTA,-0.409
TCAATTTCCACTTTCTTACTGTGCTAG,2.22

# Series 2
# Target: RNA binding protein fox-1 homolog 2, RRM domain, GST-SBP tag (RBFOX2, Homo sapiens, UniProt O43251-10, residues 100-194)
# Technique: RNA Bind-n-Seq
# Form: RNA
# Medium: in vitro
# Concentration: 365 nM
# Notes: natural RNA segment, single round, ends assumed
# Reference: no-protein control
# Reading: higher = stronger binding
# Constant ends, left off below: GGGAGUUCUACAGUCCGACGAUC … UGGAAUUCUCGGGUGCCAA
# Residues (chain): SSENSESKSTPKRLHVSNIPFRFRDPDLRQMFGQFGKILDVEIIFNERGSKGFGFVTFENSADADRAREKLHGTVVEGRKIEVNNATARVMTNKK
Oligonucleotide,RBNS enrichment (R)
UCAUCCAGCUCGUCCAAAGGCUUCAGGGAUGGAAACAAACCAGCUCGUCUCAGAGGCCAGCAAGCUGGGGCCUGUCCGCCACGGUGCCCUGUGCACCUUUGGGCUGCCCU,0.225
AACUCACUGUUCCCCAGCACAGCACAGCUGCAUGACCUCAGCUUCAGACUGAUGUCAGCCAGCCUUCUUGGAACACAUUGCUAUUCAUUGUGGAUGCCACACAGUCCAUC,0.394
GAGAAGGUAAUGCUAGAGGAAGACUCAGUCACACAGAUAACAGGCAUUGGAAACAGCCGCACUAUGGCUUCUUUGAGACCCUAUUUCCUUUUCUGGUUGUGGACAAGGCU,0.675
UUAAACUCAUGAAGUAUGGGUUCAGUGGAAAUGUUUGGAACUCUGAAGGAUUUAGACAAGGUUUUGAAAAGGAUAAUCAUGGGUUAGAAGGAAGUGUUUGAAAGUCACUU,1.63
AUUGAAUUAUACUCACCAACACAUAGAACAGGCCCUUUAGAAGGCACUAGGUGUUUGGAGGUGAGCUAGGAAGACCAGUGGUAUGUUGAGCCCCUUACAGAUAAGCACCG,0.376
CUUUGACACAACAAGACACUCCAAUUGUGAUUUGAGUUGAGGAUCUCUGCCUGCCUUCCUGCCGUCCUUCCUUCUUCCCCGAUCCAUGCUACUUUUAGGGGCUGCGGAGA,0.642
CAUUUUCUGCCCCCCCAAAAUCUGUUGAAAUGAUUCACUGAUGCAAAACAUUCACCCGUAAUAGACUGAGAAUUGAGCCUUAACUUCAGAUUAACUUGUGAGAAUCAGGA,0.517
AAGGUUCUUUUAACUGCUAACUGAAAAUGGAAUGAAAUUGCAUCCAUAGAUACUGAUGGGAUGCCAGGCUUGGAAAGUAGCUAGAAUGUAGAAGGUAUGUUGACAAAUAA,5.07
UCCACCUCAGUGGCUUAGCCUUUGGGACAGUGGAUACUGCAACAGCCAAGAACUCUUGGUUAUCCGCACAAGCUGCUGGUAGACUACAUUAGCCCUCUGGUUUUCCAGCU,0.212
GGCCACUGUGAUCUUGGCAGCCCUCCUGUUUAAGGGGCUGCCACCCUCCCUUACAGGGUGGUGUAUAGCCAGGGCUAUACAAAAAGGGUGGCUAGUGACCUUUUCUCUCU,0.253
UUUUCUUCAUUCAUUUGGAACCUUAUUUUCGCAAAAAACCUAGCUGGAAUAAUAAUGCCAUAUUGUAUUUUGCACACUGCUUUAUUUUCUAGAGGCUCUGGGAGCAAAUU,0.552
ACCCCUCUUUCUAGGCUGAACCUUGAGUCCCCCUGCUUUUUGGCAGACCUAAUGGAUCACUGUCUUGCAGCUAGUUCUUCAUGUGGGGCCUCUUAGGCCAGUGCCGGAGG,0.338

# Series 3
# Target: Prothrombin, mature alpha-thrombin (F2, Homo sapiens, UniProt P00734)
# Technique: aptamer microarray, sandwich
# Form: DNA with 2'F-ANA
# Medium: in vitro
# Concentration: 200 nM
# Notes: whole 15-mer aptamer, many near background
# Added: Cy3 exosite-II aptamer, 400 nM
# Reading: higher = stronger binding
# Oligonucleotide: GGTTGGTGTGGTTGG
Modification,mean fluorescence intensity [a.u.]
2'F-ANA at 2 3 4 6 7 8 9 10 11 13 14,144
2'F-ANA at 4 5 6 9 10 13 14,75.1
2'F-ANA at 1 4 6 8 9 10 11 12,93.5
2'F-ANA at 4 5 6 7 9 10 14 15,61.9
2'F-ANA at 1 2 4 5 6 7 8 10 11 12 13 14 15,54.2
2'F-ANA at 2 3 7 9 11 13 15,604
2'F-ANA at 3 7 9 10 11 13 14,412
2'F-ANA at 2 3 5 8 9 11 12,208
2'F-ANA at 4 5 6 7 10 12 13 14 15,49.9
2'F-ANA at 2 3 4 5 6 8 12 13 14 15,51.5
2'F-ANA at 2 3 4 7 8 9 11 12,843
2'F-ANA at 2 3 4 5 6 8 9 13,59.7
2'F-ANA at 1 4 5 6 15,57
2'F-ANA at 1 2 4 5 8 10 11 12 13 15,47
2'F-ANA at 1 2 5 6 8 9 11 12 13 14,51.8
2'F-ANA at 7 8 9 10 12 13 14,152
2'F-ANA at 2 4 5 9 10 11 12 13 15,48
2'F-ANA at 1 2 3 4 6 7 8 9 10 14,51.5
2'F-ANA at 3 4 5 7 8 9 10 14 15,54.5

# Series 4
# Target: RING finger protein unkempt homolog, zinc fingers 1-6, GST-SBP tag (UNK, Homo sapiens, UniProt Q9C0B0, residues 30-357)
# Chain of UniProt Q9C0B0 (30-357, looked up): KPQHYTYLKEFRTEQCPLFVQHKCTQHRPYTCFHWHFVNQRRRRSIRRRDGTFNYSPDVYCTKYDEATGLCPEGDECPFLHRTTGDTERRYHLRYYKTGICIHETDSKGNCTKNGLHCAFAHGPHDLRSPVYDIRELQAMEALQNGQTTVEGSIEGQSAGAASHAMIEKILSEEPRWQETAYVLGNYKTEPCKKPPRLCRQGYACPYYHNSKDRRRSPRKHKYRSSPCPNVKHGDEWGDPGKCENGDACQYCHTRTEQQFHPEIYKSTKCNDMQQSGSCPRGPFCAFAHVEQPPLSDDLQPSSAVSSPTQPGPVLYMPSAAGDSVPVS
# Technique: RNA Bind-n-Seq
# Form: RNA
# Medium: in vitro
# Concentration: not given
# Notes: RNA with constant flanks, human and mouse sites, ends assumed
# Reference: input RNA pool
# Reading: higher = stronger binding
# Constant ends, left off below: GGGAGUUCUACAGUCCGACGAUC … CAACAGAGGAUUGAGCAUCA
Oligonucleotide,bound/input enrichment [ratio]
GGGGUGGACCUCUUUCUUAAUGUCCAGUGUCCUAUGUCAUAAGAUUCGGUGCAAUAAGUAUUUAGACCAGCAAUAAAUACUCAGCUUGGAGAUCAUCAUGAUCUUUGUGGGUAGCAUAUC,0.538
UUAAUCUCAACUAAAGAUAUAGUUCUGUGGUAGCCAUUGUUUUACAAUGAAAUAACUGCAACUAGAGAAAAAAAACUGUAUAAAAACAUUAAAUUGUCAGUAUUUUUGUAAGAUUCCGUU,0.278
CUGAGCAAGAUGUACCCGCAGACCAGACACCCAGCACCGCAUCAGCCUGCUCAACCCUUUAAAUUUACAAUUUCCGAAUCCUGUGAUCGGAUUAAGGAAGAGUUUCAGUUUUUACAGGCU,0.353
GAUUACAAGGGCCAGAAGCUAGCUGAACAGAUGUUUCAGGGAAUUAUUCUUUUUUCUGCAAUAGUUGGAUUUAUCUACGGGUACGUGGCUGAACAGUUCGGGUGGACUGUCUAUAUAGUU,0.483
GCCCCCCUUGAGGUUUUCCGGCGAUUUGUGUGGAACUUCUUCCGUCUGGAGAACGAGCAUCUAAAUAACUGUGGUGAAUUCCGAGCCGUGCGGGACAUCUCUGUGGCCCCCCUCAACGCG,0.337
UUUGUUGCUGCUGUGUUUAGAUAAUUGAAGAGAUCUUUGUGCCACACAGGAUUUUUUUUUUUUUUUAAGAAAAACCUAUAGAUGAAAAAUUACUAAUGAAACUGUGUGUACGUGUCUGUG,12.5
UAUGAUGCCCUGGUUGCCAUGACUAUCUUUUUCAACACUCAAAAUGAGCCAGUACGGCAAUUAGCUAUCUUCUGUCCACACGAGGCACUUCGAAUGACAAUCUGUGGCAUCCUGGAACGA,0.254
GGCUGUAUGUUUUAUACAUUACUUAUCGGGAGACCACCCUUCGACACUGACACAGUCAAGAACACAUUAAAUAAAGUAGUAUUGGCAGAUUAUGAAAUGCCAUCUUUUUUGUCAAUAGAG,4.8
AGUUAGAAAUUAAGUCUACUGAAAAAUUUACAUUUUGAGUCAGGUUUUGUGUCAGUACUUUAGCAGUUUUUGAGAAUGUGUUUGAUAUCACAGUGUUUGUAAAUUCUAUGAAAAAUGCAU,2.66
AGCCGCAGCCUCUAUUCCUCAUCCCCCGGUGGCGCCUAUGUGACCCGGUCCUCGGCAGUGCGCCUGCGGAGCAGCGUGCCGGGCGUGCGGCUGCUUCAAGACUCGGUGGACUUCUCGCUG,0.118
AGAGACUGAACAGUCCACAUCAUCAGCUCCUUAUACCUUCGCAGCCUCCCUCUCCAAACCUAGCAGGGCCCUGCUUCCCUCCCCACCUGACAUCCAGCCGUGGAUGAGGGGCCUGCUUAG,0.35

# Series 5
# Target: PABPC1L2, full length, GST fusion (mouse, UniProt A0ABA7IW68)
# Technique: RNAcompete
# Form: RNA
# Medium: in vitro
# Concentration: 20 nM
# Notes: 7-mer, probes averaged, single round
# Reference: mean of 7-mers
# Reading: higher = stronger binding
# Construct (chain): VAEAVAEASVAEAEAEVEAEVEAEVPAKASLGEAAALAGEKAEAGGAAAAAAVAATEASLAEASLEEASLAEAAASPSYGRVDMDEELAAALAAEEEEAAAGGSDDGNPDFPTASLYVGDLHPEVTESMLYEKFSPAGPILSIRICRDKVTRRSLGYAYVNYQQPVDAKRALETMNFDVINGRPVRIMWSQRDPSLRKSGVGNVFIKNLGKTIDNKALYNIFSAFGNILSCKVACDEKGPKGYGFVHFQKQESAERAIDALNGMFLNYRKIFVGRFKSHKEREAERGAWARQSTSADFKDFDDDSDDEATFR
Oligonucleotide,7-mer Z-score
ACGGGUA,0.332
AUAUGUU,-0.195
CUCAUAG,-0.258
AGAAUAG,0.0406
UUAGCCU,-0.353
ACGCGCG,-0.358
CACCGUA,-0.233
GCGUGAG,-0.286
UCCAUCA,-0.211
CGCCCAG,-0.405
AAACAAU,4.49
UAACCCG,-0.277
GCAAUAA,0.443
AGACAUA,0.0424
GUGCCUA,-0.121
CCGUAGG,-0.204
